# Measured values from different studies.
# Every numbered part comes from another study and shows a few of its results, in no order. Positions count from the first letter of the parent shown.

# Study 1
# Target: CCNB1, cyclin fold, Cln2 fusion (human)
# Technique: yeast growth competition, sequencing
# Matrix: yeast
# Setting: weak parent motif
# Relative to: not given
# Direction: higher = stronger binding
# Starting sequence: CDKN1A docking peptide (human); SKACRRLFGPVDS
Change,normalised enrichment score
SKACRRLFGPVYS [D12Y],0.149
SKACRRLFAPVDS [G9A],0.581
SKACRRFFGPVDS [L7F],0.258
SNACRRLFGPVDS [K2N],0.322
SKACERLFGPVDS [R5E],-0.111
SKKCRRLFGPVDS [A3K],0.65
SKACRRLFCPVDS [G9C],0.189
SKICRRLFGPVDS [A3I],0.903
SKACRRLFGPVSS [D12S],0.332
SKACRRLFGPVRS [D12R],-0.0727
SKACRRLFGPLDS [V11L],0.12
SRACRRLFGPVDS [K2R],-0.168
SKACRRQFGPVDS [L7Q],0.361

# Study 2
# Target: Cyclic AMP-responsive element-binding protein 1, full length (CREB1, Homo sapiens, UniProt P16220, residues 1-327)
# Chain of UniProt P16220 (whole entry, looked up): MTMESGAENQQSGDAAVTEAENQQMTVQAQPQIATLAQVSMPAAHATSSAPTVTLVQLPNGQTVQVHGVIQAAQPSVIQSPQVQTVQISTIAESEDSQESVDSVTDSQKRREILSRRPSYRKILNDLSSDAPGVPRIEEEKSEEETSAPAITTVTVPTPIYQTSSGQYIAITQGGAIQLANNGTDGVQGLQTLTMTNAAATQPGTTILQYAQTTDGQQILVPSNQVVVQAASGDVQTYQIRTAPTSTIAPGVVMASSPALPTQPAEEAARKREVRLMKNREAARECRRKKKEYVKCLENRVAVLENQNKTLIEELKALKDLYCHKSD
# Technique: protein-binding microarray
# Form: hairpin DNA
# Matrix: in vitro
# Concentration: not given
# Setting: whole hairpin DNA, median over replicate spots
# Relative to: not given
# Direction: higher = stronger binding
Sequence,median fluorescence [a.u.]
GAGGCCCGATGACGTCAGCCTCCTGGCTGACGTCATCGGGCCTCACACTC (5mC at 37),22700
GAGGCCGGCTGACGTGAGCCTCCTGGCTCACGTCAGCCGGCCTCACACTC (5mC at 29),5090
GAGGCCGGCTGACGTCTGCCTCCTGGCAGACGTCAGCCGGCCTCACACTC,4670
GAGGCCGGCTCACGTCAGCCTCCTGGCTGACGTGAGCCGGCCTCACACTC (5mC at 11),4380
GAGGCCGACGACGTGGTGCCTCCTGGCACCACGTCGTCGGCCTCACACTC (5mC at 9 29 30 35),5470
GAGGCCGACGGCGTCGTGCCTCCTGGCACGACGCCGTCGGCCTCACACTC (5mC at 9 15 29 34 35),3670
GAGGCCGGCTGTCGTCAGCCTCCTGGCTGACGACAGCCGGCCTCACACTC,3540
GAGGCCGGCTGACGCGAGCCTCCTGGCTCGCGTCAGCCGGCCTCACACTC (5mC at 15),5600
GAGGCCGGATCGCGTCAGCCTCCTGGCTGACGCGATCCGGCCTCACACTC (5mC at 33),4980
GAGGCCGTATGACGTCAGCCTCCTGGCTGACGTCATACGGCCTCACACTC,24100

# Study 3
# Target: Interferon regulatory factor 7, full length, phosphomimetic (IRF7, Homo sapiens, UniProt Q92985, residues 1-503, S471D/S472D/S475D/S476D/S477D/S483D/S484D/S487D)
# Technique: protein-binding microarray
# Form: double-stranded DNA, one strand shown
# Matrix: in vitro
# Concentration: 2200 nM top
# Setting: 60-bp whole probe
# Together with: salmon DNA 0.4 mg/ml
# Relative to: random background probes
# Direction: higher = stronger binding
# Shared flanks, not repeated: GCCTAGCAC … GTCTTGATTCGCTTGACGCTGCTG
# Construct (chain): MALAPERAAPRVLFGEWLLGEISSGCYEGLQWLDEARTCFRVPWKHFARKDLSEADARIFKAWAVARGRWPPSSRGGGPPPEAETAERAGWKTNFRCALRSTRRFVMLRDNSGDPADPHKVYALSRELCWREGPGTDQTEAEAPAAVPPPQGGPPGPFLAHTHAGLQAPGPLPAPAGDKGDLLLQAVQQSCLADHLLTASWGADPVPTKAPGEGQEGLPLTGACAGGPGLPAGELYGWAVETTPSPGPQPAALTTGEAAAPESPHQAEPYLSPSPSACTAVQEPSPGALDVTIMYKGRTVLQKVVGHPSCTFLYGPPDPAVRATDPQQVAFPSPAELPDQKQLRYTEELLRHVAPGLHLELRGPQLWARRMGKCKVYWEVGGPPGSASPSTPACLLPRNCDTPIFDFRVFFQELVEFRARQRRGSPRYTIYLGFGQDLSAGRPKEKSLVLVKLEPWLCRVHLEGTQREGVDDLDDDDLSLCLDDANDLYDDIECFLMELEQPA
Sequence,fitted relative affinity [z-score]
GACGATTTCTGGTTTCGAGACGTGCTA,4.33
TCATTTCTCTTTCATTGCACTGTGCTA,3.78
GGCGATTTCAGTTCCGAGACGTGCTAG,1.57
TTAGGTTTCGGGTATCGGCTAGTGCTA,6.05
TTAGGTTTCCGTATCGGTTAGTGCTAG,2.67
GACGGTCTCGGTCTCGGGGCGTGCTAG,-0.294
TCAGTGATCAGTCTGATACTGTGCTAG,0.195
GACGATCTCCGACTGGAGACGTGCTAG,-0.19
GGCGGTATCGACACTGGGGACGTGCTA,-0.957

# Study 4
# Target: NFE2L1, bZIP domain (human)
# Technique: DHFR protein complementation
# Matrix: yeast
# Setting: single substitutions, most at no-binding floor
# Relative to: wild-type JUN-FOS pair
# Direction: higher = stronger binding
# Starting sequence: JUN, bZIP domain (human); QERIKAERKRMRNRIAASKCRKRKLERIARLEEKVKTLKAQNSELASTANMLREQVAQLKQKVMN; partner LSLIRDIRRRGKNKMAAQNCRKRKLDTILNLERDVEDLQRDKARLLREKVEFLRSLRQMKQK
Change,binding fitness
L45F,-1.58 natural log
K36P,-1.55 natural log
T48W,-1.36 natural log
K36G,-1.49 natural log
E54H,-1.57 natural log
Q55S,-1.33 natural log
E32C,-1.54 natural log
V35A,-1.33 natural log
I28P,-1.51 natural log
L31E,-1.52 natural log
A49H,-1.41 natural log

# Study 5
# Target: RING finger protein unkempt homolog, zinc fingers 1-6, SBP tag (UNK, Homo sapiens, UniProt Q9C0B0, residues 30-357)
# Chain of UniProt Q9C0B0 (30-357, looked up): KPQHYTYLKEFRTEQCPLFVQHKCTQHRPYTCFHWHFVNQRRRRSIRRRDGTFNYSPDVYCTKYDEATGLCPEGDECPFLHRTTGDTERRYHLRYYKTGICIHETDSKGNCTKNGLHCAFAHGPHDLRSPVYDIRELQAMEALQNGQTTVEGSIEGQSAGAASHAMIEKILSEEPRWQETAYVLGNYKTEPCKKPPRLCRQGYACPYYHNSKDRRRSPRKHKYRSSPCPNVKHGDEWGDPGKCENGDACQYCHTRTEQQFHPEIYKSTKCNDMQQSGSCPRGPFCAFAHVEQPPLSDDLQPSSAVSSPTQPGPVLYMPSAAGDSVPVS
# Technique: RNA Bind-n-Seq
# Form: RNA
# Matrix: in vitro
# Concentration: 100 nM
# Setting: RNA with constant flanks, vertebrate orthologous sites, ends assumed
# Relative to: input RNA pool
# Direction: higher = stronger binding
Sequence,bound/input enrichment
GGGAGUUCUACAGUCCGACGAUCUAAUGUGUUUUUAUUUAUUGAAAAUAGUUUUGUGGUAAGGAUUGUGUUAGAUUUACAAAUCAGUGAAUUGAUUCCUCUUUGUUGUGUUGCUUUCAUUGUUGAAAAUAAAUAGAACUUUGACAACAGAGGAUUGAGCAUCA,0.348 ratio
GGGAGUUCUACAGUCCGACGAUCUCAUUGUACUGCCAAAGUUAUCCUAGUUCUAAAGUAGCCAUAGUGAUAACUAGUCUACACUAGCAGAAUCAUUUGUUGUCACUUUUUAAAAUUAUCUGCUUUGUCUGGUACCUGGAACCACAACAGAGGAUUGAGCAUCA,0.472 ratio
GGGAGUUCUACAGUCCGACGAUCUGCAUUAUUUGACCAGAGUUGAAGUGACAGAAUUUGAAGAUAUUAAAUCAGGUUACAGAAUAGAUUUUUAUUUUGAUGAAAAUCCUUACUUUGAAAAUAAAGUUCUCUCCAAAGAAUUUCCAACAGAGGAUUGAGCAUCA,0.246 ratio
GGGAGUUCUACAGUCCGACGAUCCUCCCUGUCACUGUGAUAUUUAAAAUAUGCACAGUCCUAAUUUUGUUUCCUAAAUGAUUCUAGUAAUUUCCUAGCAAUAGCUCUAUCUUACCUGUUAUUUAUCAAUUUCCCCCCAAGGUUCAACAGAGGAUUGAGCAUCA,2.24 ratio

# Study 6
# Target: Hepatocyte nuclear factor 3-alpha (Foxa1, Mus musculus, UniProt P35582, residues 1-468, full length assumed)
# Technique: EMSA with sequencing
# Form: double-stranded DNA, one strand shown
# Matrix: in vitro
# Concentration: 10 and 20 nM
# Setting: whole designed probe, mean of two concentrations, ends assumed
# Relative to: negative control set to 0
# Direction: higher = stronger binding
# Construct (chain): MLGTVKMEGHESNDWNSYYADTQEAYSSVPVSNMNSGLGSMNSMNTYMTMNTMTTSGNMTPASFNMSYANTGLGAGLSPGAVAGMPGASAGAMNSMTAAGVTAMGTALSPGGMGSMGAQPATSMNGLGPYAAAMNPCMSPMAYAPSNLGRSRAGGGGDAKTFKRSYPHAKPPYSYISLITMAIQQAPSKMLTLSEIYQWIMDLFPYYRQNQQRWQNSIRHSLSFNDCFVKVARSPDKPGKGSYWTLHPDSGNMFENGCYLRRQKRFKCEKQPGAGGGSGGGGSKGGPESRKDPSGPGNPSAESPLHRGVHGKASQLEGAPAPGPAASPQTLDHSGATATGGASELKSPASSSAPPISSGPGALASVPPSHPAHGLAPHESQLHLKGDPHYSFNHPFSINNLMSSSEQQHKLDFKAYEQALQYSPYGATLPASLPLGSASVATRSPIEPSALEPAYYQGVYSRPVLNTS
Sequence,normalised bound fraction [ratio]
GTGAGCGGTGCCCATTGATGGGGAACGTAGGGGTAATGAAAAACTTCTTGTGCAAGCGGCCATTAATCAGCAGTGTAACATTGCATAACGTGCTCCAAAGGAGCTCTCATGGGATCAGAGTACACAGCTGCATAATGCAGGCCAGTGTCTGTGCCTCCTGCTGACCTTTTCCAATGCAGAACTCGAACCATGTGATGCATGCTTCTTGCCAAGTCACTTTTTCACTGGGATCGTGGGGAC,-0.0423
GTGAGCGGTGCCCATTGATGGGGAACATAGTGGTGAGCTTCTCTATGTTGTGTCTACATGGCTATGATGACAAGTGGAGTTATACGCCTGTGCTCTATACTCACTGAGTCACGAAGAATGTAAACATCCTACCTCGGCCTATCCTTGACCAAAGCACAGCCATGTTCCTTACACTCTGGGTCCCCACGGTTCAGACAGAAGTCTCTCTGACAGACAACATTTCACTGGGATCGTGGGGAC,0.291
GTGAGCGGTGCCCATTGATGGGGAACGGAAGCACTAGAGGTAATATTTCCTTACTGGACCCCAGTCCTAAATTACCTACTTTTATCCAAATTAGGCTTATTTTAAGATATTTCAAAAAGTAAACATGTAAAATGGTGAAATACACATGTTATGTCTGATGTTAGGCTTTACCTGGATTTTTAATCCCGTAAGACAAGAAATGTGAATATCAGAATGACTTTTCACTGGGATCGTGGGGAC,0.24

# Study 7
# Target: TATA-box-binding protein 1 (TBP1, Arabidopsis thaliana, UniProt P28147, residues 1-200, full length assumed)
# Technique: protein-binding microarray
# Form: double-stranded DNA, one strand shown
# Matrix: in vitro
# Concentration: not given
# Setting: k-mer, scored over probes, only values ≥0.25
# Direction: higher = stronger binding
# Residues (chain): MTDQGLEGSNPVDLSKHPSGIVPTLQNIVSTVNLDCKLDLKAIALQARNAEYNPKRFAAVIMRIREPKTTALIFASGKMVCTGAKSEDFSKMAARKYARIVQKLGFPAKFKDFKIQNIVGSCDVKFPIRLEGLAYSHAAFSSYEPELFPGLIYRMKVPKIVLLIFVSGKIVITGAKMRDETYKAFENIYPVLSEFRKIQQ
Sequence,E-score
ATTAATA,0.429
ATAATTC,0.353
ATAAAAC,0.37
AAAAATT,0.286
CTATATA,0.485
ATGATAA,0.291
GCAATTA,0.26
AATCATA,0.301
CCTTTAA,0.336
CACTTAA,0.302

# Repeated from above (study 3):
Sequence,fitted relative affinity [z-score]
GGCGATTTCAGTTCCGAGACGTGCTAG,1.57
TTAGGTTTCGGGTATCGGCTAGTGCTA,6.05
TTAGGTTTCCGTATCGGTTAGTGCTAG,2.67
GACGGTCTCGGTCTCGGGGCGTGCTAG,-0.294
TCAGTGATCAGTCTGATACTGTGCTAG,0.195
GACGATCTCCGACTGGAGACGTGCTAG,-0.19
GGCGGTATCGACACTGGGGACGTGCTA,-0.957
